Measured values of several laboratories.
Numbered parts are unrelated; each lists some results of a single study. Positions count from the first letter of the parent shown.

Sample 1 — target: CCNF, cyclin fold, Cln2 fusion (human); method: yeast growth competition, sequencing; matrix: yeast; setting: strong parent motif; relative to: not given; direction: higher = stronger binding; starting sequence: viral docking peptide; TSVRRALFTGGSD
`F8R` — result for “normalised enrichment score”: 0.456.
`V3L`: “normalised enrichment score” 4.94.
`G11K` — result for “normalised enrichment score”: 8.61.
`S2L`: “normalised enrichment score” 8.1.
For `L7P`, “normalised enrichment score” read 0.29.
For `G11F`, “normalised enrichment score” read 8.83.
Under “normalised enrichment score”, `R5S` is recorded as 0.481.
`L7T`: “normalised enrichment score” 0.515.
`R5I` — result for “normalised enrichment score”: 1.24.
`S2N` — result for “normalised enrichment score”: 8.35.
`A6H` — result for “normalised enrichment score”: 4.77.
Under “normalised enrichment score”, `A6Q` is recorded as 8.32.
Under “normalised enrichment score”, `V3F` is recorded as 4.93.
`L7R`: “normalised enrichment score” 0.664.
For `G10D`, “normalised enrichment score” read 7.75.
`L7I`: “normalised enrichment score” 5.74.
For `G10R`, “normalised enrichment score” read 8.86.

Sample 2 — method: DNA-protein interaction ELISA; molecule type: double-stranded DNA, one strand shown; matrix: in vitro, bacterial lysate; tested at: not given; setting: whole dsDNA probe, crude lysate protein; relative to: highest signal in screen; direction: higher = stronger binding
Target: Probable WRKY transcription factor 50, DNA-binding domain (WRKY50, Arabidopsis thaliana, UniProt Q8VWQ5, residues 99-173)
Target sequence (chain): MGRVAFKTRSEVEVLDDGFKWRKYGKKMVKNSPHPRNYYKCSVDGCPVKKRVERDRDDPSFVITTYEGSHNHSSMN
The relative absorbance of `AAAAAAAGGTTTGGGCTTCACGTTATAAAA` is reported as 27.7 % of maximum.
The relative absorbance of `AAAAAAGTGCGTTCACGCTTGTATCTAAAA` is reported as 16.6 % of maximum.
For `AAAAAATAGGCGTTATGGCTAACACCAAAA`, the relative absorbance was 11.5 % of maximum.
The relative absorbance of `AAAAAAATCGTTGTTATCGTATTTATAAAA` is reported as 29.6 % of maximum.
For `AAAAAATAATATCGATACTCATGCCCAAAA`, the relative absorbance was 17.7 % of maximum.
For `AAAAAAGGCTCCGGCCCCCAATCGCAAAAA`, the relative absorbance was 11.1 % of maximum.
`AAAAAATGCAACGCTCCTTTCCCGCTAAAA` gave a relative absorbance of 24.9 % of maximum.
`AAAAAATCGGGCCCCGTTAGCACTCTAAAA` has a relative absorbance of 15.8 % of maximum.

Sample 3 — method: protein-binding microarray; molecule type: double-stranded DNA, one strand shown; matrix: in vitro; tested at: not given; direction: higher = stronger binding
Target: Protein C-ets-1 (ETS1, Homo sapiens, UniProt P14921, residues 1-441, full length assumed)
UniProt P14921, sequence (whole entry, looked up): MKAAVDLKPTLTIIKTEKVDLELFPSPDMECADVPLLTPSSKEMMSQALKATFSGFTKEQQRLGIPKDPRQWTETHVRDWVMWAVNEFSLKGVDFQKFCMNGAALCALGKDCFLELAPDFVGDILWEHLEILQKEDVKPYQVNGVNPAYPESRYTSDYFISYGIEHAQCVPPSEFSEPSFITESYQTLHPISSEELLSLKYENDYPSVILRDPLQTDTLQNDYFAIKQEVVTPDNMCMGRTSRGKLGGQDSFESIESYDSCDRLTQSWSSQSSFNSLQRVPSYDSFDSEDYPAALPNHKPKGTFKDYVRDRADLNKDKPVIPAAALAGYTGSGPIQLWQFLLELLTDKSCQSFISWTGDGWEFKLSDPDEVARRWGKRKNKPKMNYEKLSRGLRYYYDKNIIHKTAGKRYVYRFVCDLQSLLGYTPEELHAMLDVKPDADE
Setting: k-mer, scored over probes, only values ≥0.25
`GCGGATGA` gave an E-score of 0.391.
With `GCTTCCTA` the E-score was 0.34.
`CTGCTTCC` has an E-score of 0.445.
For `CTATTTCC`, the E-score was 0.439.
The E-score of `GGATATGA` is reported as 0.415.
The E-score of `CTACTTCC` is reported as 0.465.
For `CATCGGAA`, the E-score was 0.319.
The E-score of `AATCCGGG` is reported as 0.283.

Sample 4 — target: inorganic phosphate, free oxyanion; method: microfluidic competitive inhibition; matrix: in vitro, cell-free expressed; tested at: not given; direction: lower = stronger binding
Setting: derived from inhibition constants, unchanged parent 615000 nM
Starting sequence: PafA, mature enzyme, eGFP fusion (Elizabethkingia meningoseptica, UniProt Q9KJX5); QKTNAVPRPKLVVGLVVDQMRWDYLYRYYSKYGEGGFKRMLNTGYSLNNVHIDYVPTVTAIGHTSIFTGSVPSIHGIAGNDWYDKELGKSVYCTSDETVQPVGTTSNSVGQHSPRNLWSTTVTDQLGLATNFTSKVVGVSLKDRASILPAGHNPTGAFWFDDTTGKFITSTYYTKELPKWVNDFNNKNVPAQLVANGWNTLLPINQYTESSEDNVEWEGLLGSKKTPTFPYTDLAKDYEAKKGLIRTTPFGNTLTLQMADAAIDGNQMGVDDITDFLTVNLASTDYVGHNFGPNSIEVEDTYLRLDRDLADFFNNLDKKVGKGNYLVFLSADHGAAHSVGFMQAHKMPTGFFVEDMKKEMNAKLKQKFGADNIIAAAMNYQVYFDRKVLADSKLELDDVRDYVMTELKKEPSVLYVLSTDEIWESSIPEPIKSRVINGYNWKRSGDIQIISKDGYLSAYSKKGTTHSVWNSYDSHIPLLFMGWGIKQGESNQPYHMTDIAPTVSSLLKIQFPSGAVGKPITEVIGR
`L417V` — result for “phosphate dissociation constant”: 661 µM.
`N205G`: “phosphate dissociation constant” 610 µM.
`N491G`: “phosphate dissociation constant” 611 µM.
Under “phosphate dissociation constant”, `Y32G` is recorded as 566 µM.

A few entries again (sample 1):
For `G11F`, “normalised enrichment score” read 8.83.
Under “normalised enrichment score”, `R5S` is recorded as 0.481.
`L7T`: “normalised enrichment score” 0.515.
`R5I` — result for “normalised enrichment score”: 1.24.
